Experimental data gathered from unrelated publications.
Each numbered part is a random draw from the data of one study; scales do not carry over between parts.

Series 1 — method: RNA Bind-n-Seq; form: RNA; medium: in vitro; tested at: 365 nM; baseline: no-protein control; reading: higher = stronger binding
Target: RNA binding protein fox-1 homolog 2, RRM domain, GST-SBP tag (RBFOX2, Homo sapiens, UniProt O43251-10, residues 100-194)
Setting: natural RNA segment, single round, ends assumed
Residues (chain): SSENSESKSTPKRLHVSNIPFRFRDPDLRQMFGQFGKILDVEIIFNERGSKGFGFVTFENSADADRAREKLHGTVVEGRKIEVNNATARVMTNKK
For `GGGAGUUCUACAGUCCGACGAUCUCCAGGAACCCCUGCCAUGAGGCCAUCAUAGAUCCAGACUCGGGAUGUGGGCUCCAAACCAGAAUAGAGCCUCUGCCAAGGAGCUGGAAACAGCCCAGUGAGGCUGAAGUUGGAAUUCUCGGGUGCCAA`, “RBNS enrichment (R)” read 0.281.
`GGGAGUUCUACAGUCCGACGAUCGCCUAUCAUUUCUUUUACCUUUAACUCAACUCUGAACUGAUUGAAUAAGUGCUAAGCUUAUUCUUUGGGCUUUGGGUGGCAAUUUUCAGUGAGGUAUUAAAUAUAUCUGAUGGAAUUCUCGGGUGCCAA`: “RBNS enrichment (R)” 0.366.
For `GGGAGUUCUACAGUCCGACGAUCCAAUGUUAAGUGUCUGCUUUAUGGGCAUAUAUAAAAGUAGACACAUUUCAUUUGUUAAUUUAGUUGUGUGUGUGUGUUAAAAGGAGCUAAUGCUUAUUCUGUUAAUGUAAUGGAAUUCUCGGGUGCCAA`, “RBNS enrichment (R)” read 0.602.
`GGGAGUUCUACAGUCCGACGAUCCCACGUAACUGGCUGCAGAGAAAUCUACCGAGCAAGGAAAAGGCACACACACACGUUUGCAGGGGUGUCUCGGUUUGCAUUUCUGUUGGAAUGAUCCGAACUGGACUCACUGGAAUUCUCGGGUGCCAA`: “RBNS enrichment (R)” 0.685.
Under “RBNS enrichment (R)”, `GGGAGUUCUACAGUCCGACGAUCCCCCAGACUCAUGGGUGUACAUCAAGAUGCCCAACAGAGGAACUCUUUCUUUCUAACCUUGUUCAGAUUGAGGUGAAAAGUCCAUCUUGCUGAUUUGAUGAUUGAAAUGUUGGAAUUCUCGGGUGCCAA` is recorded as 0.358.
For `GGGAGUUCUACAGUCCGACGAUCGUAUCAUGACUCAGUAUGGUUCAAUUUCCUAGUAAGAAGUGGGGAUUUGUGUUUUUGGAGUCCUCAGCUCACAUGUCUUGUUCCUCCUUCAGCACAAGCUAGGGGAGAUCUGGAAUUCUCGGGUGCCAA`, “RBNS enrichment (R)” read 0.565.
For `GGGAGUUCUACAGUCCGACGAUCGUUGGGCAGUCUCAGUUGAGAAGCUUUAUCGCCUCAAGCCAAGUGGGAGCUCUCUCCCUCAUGCCUGUGGGUAUUUCUGAAAUGAAGCUGCGCCCUGUUCUGUCCUUUCCUGGAAUUCUCGGGUGCCAA`, “RBNS enrichment (R)” read 0.371.
`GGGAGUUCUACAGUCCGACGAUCGUUCCGUGAUGUAGGGUAAGGUGCCUUCUUAUUCUCACUCCACCACCCAAAAGUCAAAAGGUGCCUGUGAGGCAGGGGCGGAGUGAUACAACUUCAAGUGCAUGCUCUCUUGGAAUUCUCGGGUGCCAA`: “RBNS enrichment (R)” 16.7.
Under “RBNS enrichment (R)”, `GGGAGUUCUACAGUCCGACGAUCUCUGCCUCCUUGCCUGCCUACAAGGUGCCUGGUUUGCAGCAGGCUCUCCGCUCUUUCCAGCAAAGCUGCUCAGAGAGGGUGUCCAGCACAGUGGAGAGGCCGGAAGUGAGUGGAAUUCUCGGGUGCCAA` is recorded as 0.68.
`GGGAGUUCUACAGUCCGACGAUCCCAGGAUGCUGCUGCAGGUGGCGUAUCAUCGUACACACUCAGUGACAUUUCUAUCACAAUCAUUUUAUGGAAGAUGUGUGAUAAUCUGUUUUUACUGGUAUUAAUAAACAUGGAAUUCUCGGGUGCCAA`: “RBNS enrichment (R)” 0.344.
Under “RBNS enrichment (R)”, `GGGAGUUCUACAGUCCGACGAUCGCAGAAUGCUUUGAAAGAAACUAAUCAGAAUCUUGGAACAUCAUGAUCAUGCCAUUCUUAAGUAAAUCAACUAUUUUCAACACUGAAGAAAAAUGAAACAUUAUUUAGAAUGGAAUUCUCGGGUGCCAA` is recorded as 0.294.
For `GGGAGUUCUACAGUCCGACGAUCCUCUCCCCCAGGAGCCCUGCUGCUUUGCUUGGUGGUAGGGCAGGAGAGCAAACAAACAGUCAUGGUCUAAAACCCACAUAGCACUUUGCUCUUAGUUACAUGUAAAAUUUUGGAAUUCUCGGGUGCCAA`, “RBNS enrichment (R)” read 0.745.

Series 2 — method: RNA Bind-n-Seq; form: RNA; medium: in vitro; tested at: 200 nM; setting: whole 134-nt RNA, ends assumed; together with: 150 mM LiCl; baseline: input library; reading: higher = stronger binding; all molecules: 7-deaza-guanosine replaces G
Target: Fragile X messenger ribonucleoprotein 1, C-terminal low-complexity region (Fmr1, Mus musculus, UniProt P35922)
`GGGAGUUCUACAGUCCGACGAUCUCAAGUCCUGUGCUACACAUCGUAUGUACCGAAUCGGGGCCGGGGCCGGGCCGGGAAAGUAUUAUGUUACGCCGUUCGGAUCUGCACUUCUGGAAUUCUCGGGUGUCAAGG` gave a log2 enrichment of 0.402.
The log2 enrichment of `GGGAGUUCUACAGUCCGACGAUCCACAGACAACACGCACCCACACAGACACAGAGGGAAGGGGUUGGGAUGGGGACAGGGUGCACAGCAGGGCGGGGUAGGACCCCAGCCCCCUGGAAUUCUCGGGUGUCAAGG` is reported as 0.469.
`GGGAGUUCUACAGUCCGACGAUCACCAUGCAGGUGGGCAUCUUUGGGAAGUGGGGUAAGGGGGGGAUAGGGAGGGGGGUAACACUUUGGGAACAGGUGGUCCCAGGUCGUUUCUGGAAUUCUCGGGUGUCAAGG` gave a log2 enrichment of 1.68.
`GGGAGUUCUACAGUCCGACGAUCGCAGGAAGUAAAAACAAAUGGAAAUGCUUCGGAUAGUGGCAGGGGUGGGGGUUGCUAAGGAAAGGGUGGGAUGGGAGUGGGUAAUGAGUUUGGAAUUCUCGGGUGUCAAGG` gave a log2 enrichment of 2.14.
For `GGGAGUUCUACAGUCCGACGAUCCACAGACUACACGCACCCACACAGACACAGAGGGAAGGGGUUGGGAUGGGGACAGGGUGCACAGCAGGGCGGGGUAGGACCCCAGCCCCUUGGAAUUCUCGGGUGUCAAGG`, the log2 enrichment was 0.505.
The log2 enrichment of `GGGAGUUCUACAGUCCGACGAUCAGUCCUGUGCUACACAUCGUAUGUACCGAAUCGGGGAGGGGAAAGGGGAAAAAGGGGAAAGUAUUAUGUUACGCCGUUCGGAUCUGCACUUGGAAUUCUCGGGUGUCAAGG` is reported as 0.545.
For `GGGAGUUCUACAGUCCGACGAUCCCUCAAGUCCUGUGCUACACAUCGUAUGUACCGAAUCGGAAGGGAAGGAAGGAAAGUAUUAUGUUACGCCGUUCGGAUCUGCACUUCCAGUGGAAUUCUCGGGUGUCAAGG`, the log2 enrichment was -1.57.
`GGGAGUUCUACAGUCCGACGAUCUUCGACGAAACAAUUCGAAAGCCCAUCAGUUUGGGUUGUGGCCAUACUGUCUGCAAGAUGUGCCUGAAUAAACUCCACCGCAAGGCUUGCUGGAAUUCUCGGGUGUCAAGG` has a log2 enrichment of 0.0522.
For `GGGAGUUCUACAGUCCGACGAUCUCCUGUGCUACACAUCGUAUGUACCGAAUCGGGGAAAGGGGAAAAAAAGGGGAAAGGGGAAAGUAUUAUGUUACGCCGUUCGGAUCUGCAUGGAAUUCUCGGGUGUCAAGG`, the log2 enrichment was 0.427.
`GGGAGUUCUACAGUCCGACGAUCGCAGGAAGUAAAAACAAAUGGAAAUGCUUCGGAUAGUGGCAGGGGUGGGGGUUGCUAAGGAAAGGAUGGGAUGGGAGUGGGUAAAGAGUUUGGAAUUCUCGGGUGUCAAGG` gave a log2 enrichment of 1.48.
The log2 enrichment of `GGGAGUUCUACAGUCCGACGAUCCACAGACAACACGCACCCACACAGACACAGAGGGAAGGGGUUGGGAUGGGGACAAGGUGCACAGCAGGGCGGGGUAGGACCCCAGCCCCUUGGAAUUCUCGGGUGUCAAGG` is reported as 0.222.

Series 3 — method: protein-binding microarray; form: double-stranded DNA, one strand shown; medium: in vitro; tested at: not given; reading: higher = stronger binding
Target: Protein max, full length (MAX, Homo sapiens, UniProt P61244-2, residues 1-151)
Setting: k-mer, scored over probes, only values ≥0.25
For `CCACATGC`, the E-score was 0.47.
The E-score of `CATAGCAC` is reported as 0.289.
`CTCCCCAC` has an E-score of 0.252.
With `ACGCGGTG` the E-score was 0.327.
`GGCGTGCA` gave an E-score of 0.376.
For `CGTGCTGA`, the E-score was 0.404.
The E-score of `ATTACACG` is reported as 0.265.
`CGTGCTCC` has an E-score of 0.372.
`ATGTCACG` has an E-score of 0.377.
The E-score of `AAACATGC` is reported as 0.36.
`CATACATG` has an E-score of 0.27.
`ACGTGACT` has an E-score of 0.434.
`ACACGCTG` gave an E-score of 0.442.
`CACGTTGA` gave an E-score of 0.453.
With `ATGCACGG` the E-score was 0.27.
`ACCCACGG` gave an E-score of 0.28.
`ACGACACG` has an E-score of 0.327.
`CACATGCC` has an E-score of 0.464.
With `CGCGGCCA` the E-score was 0.251.
`CGTGACAC` has an E-score of 0.416.
`AGTACATG` has an E-score of 0.275.
`CTCATGAC` gave an E-score of 0.288.
`CAAGCACG` gave an E-score of 0.381.
With `ACGCCCCG` the E-score was 0.268.
The E-score of `ACACATGA` is reported as 0.424.

Series 4 — method: protein binding microarray; form: double-stranded DNA, one strand shown; medium: in vitro; tested at: not given; baseline: not given; reading: higher = stronger binding
Target: Histone acetyltransferase KAT6A, winged helix 2, GST fusion (KAT6A, Homo sapiens, UniProt Q92794, residues 85-181)
Setting: 8-mer, flanks averaged, mean of 2 arrays, mostly near background
Construct (chain): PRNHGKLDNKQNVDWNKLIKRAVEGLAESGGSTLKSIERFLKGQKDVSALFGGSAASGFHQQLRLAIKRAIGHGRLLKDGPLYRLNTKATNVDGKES
`AACAGAAC` has an E-score of 0.0313.
`CGCTTGAG` gave an E-score of 0.112.
With `CGGTCAAA` the E-score was -0.0185.
With `CCCGGTTA` the E-score was -0.115.
For `GACGTGGA`, the E-score was -0.134.
`ACAGGTTA` has an E-score of -0.218.
`TACACTCA` has an E-score of 0.0551.
For `AGCGTCAT`, the E-score was -0.0464.
The E-score of `ATGATCAC` is reported as 0.0125.
For `AGGGCTAG`, the E-score was -0.113.
`AGAGACTG` gave an E-score of -0.138.
`AGCAATCG` has an E-score of -0.0622.
For `CGCTAGTC`, the E-score was -0.101.
The E-score of `AGGGGTTA` is reported as -0.275.
The E-score of `CTGGTACA` is reported as -0.0959.
`GTTGCTCA` gave an E-score of 0.117.
With `GACGGATA` the E-score was -0.0244.
`AGTTGCGC` has an E-score of -0.018.
With `CGTTGAGC` the E-score was -0.0441.
`CGAGACCC` gave an E-score of -0.00745.
The E-score of `ATTGTTTC` is reported as 0.1.
The E-score of `ATATATAT` is reported as 0.179.
For `AAATTGCT`, the E-score was 0.0311.
For `ACTGTTTC`, the E-score was -0.0641.
The E-score of `CAGGCGGC` is reported as 0.136.

Series 5 — method: universal PBM; form: double-stranded DNA, one strand shown; medium: in vitro; tested at: 600 nM; reading: higher = stronger binding
Target: Sal-like protein 4, full length isoform A (SALL4, Homo sapiens, UniProt Q9UJQ4, residues 1-1053)
Sequence of UniProt Q9UJQ4 (whole entry, looked up): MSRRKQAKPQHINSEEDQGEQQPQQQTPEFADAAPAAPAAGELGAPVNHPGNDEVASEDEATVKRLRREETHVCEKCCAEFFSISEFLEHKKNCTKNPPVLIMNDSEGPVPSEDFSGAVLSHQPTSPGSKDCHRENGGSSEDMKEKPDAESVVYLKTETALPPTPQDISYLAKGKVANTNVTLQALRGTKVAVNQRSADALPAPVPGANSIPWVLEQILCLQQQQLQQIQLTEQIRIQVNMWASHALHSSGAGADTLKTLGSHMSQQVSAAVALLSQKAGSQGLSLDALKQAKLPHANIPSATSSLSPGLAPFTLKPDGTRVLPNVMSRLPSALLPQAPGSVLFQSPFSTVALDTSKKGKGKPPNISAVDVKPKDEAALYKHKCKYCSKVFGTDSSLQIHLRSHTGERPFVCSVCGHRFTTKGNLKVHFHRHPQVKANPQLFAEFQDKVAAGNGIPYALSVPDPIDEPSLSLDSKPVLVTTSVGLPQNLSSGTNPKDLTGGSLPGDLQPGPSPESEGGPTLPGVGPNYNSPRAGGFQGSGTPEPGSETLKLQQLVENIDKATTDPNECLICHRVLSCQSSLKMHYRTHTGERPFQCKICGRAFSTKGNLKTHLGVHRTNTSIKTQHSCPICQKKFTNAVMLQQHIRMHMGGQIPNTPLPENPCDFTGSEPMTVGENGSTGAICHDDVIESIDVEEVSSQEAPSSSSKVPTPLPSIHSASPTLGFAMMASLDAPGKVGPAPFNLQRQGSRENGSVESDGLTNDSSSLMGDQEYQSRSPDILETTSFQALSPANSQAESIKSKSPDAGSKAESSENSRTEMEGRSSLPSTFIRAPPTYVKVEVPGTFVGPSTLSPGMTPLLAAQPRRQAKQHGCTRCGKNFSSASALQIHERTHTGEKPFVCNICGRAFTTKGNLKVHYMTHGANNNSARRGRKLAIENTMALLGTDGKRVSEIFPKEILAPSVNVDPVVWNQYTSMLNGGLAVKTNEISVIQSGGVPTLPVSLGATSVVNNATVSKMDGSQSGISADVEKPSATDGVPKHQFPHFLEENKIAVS
Setting: 8-mer, flanks averaged, mean of replicates
For `CTCTAAAG`, the E-score was -0.0529.
For `CTTGCTAC`, the E-score was -0.0162.
With `CATGGTCA` the E-score was 0.0877.
The E-score of `ATGAGGGA` is reported as 0.0545.
The E-score of `ACGGACCT` is reported as -0.306.
For `CGCTGGAA`, the E-score was -0.222.
With `GGCGCCGA` the E-score was -0.289.
For `CTTTTTCA`, the E-score was 0.252.
`TCAACAAA` gave an E-score of 0.19.
`AAAAGCAG` gave an E-score of -0.0898.
`ATAACCCG` has an E-score of -0.0468.
The E-score of `AAACCAGC` is reported as -0.0712.
The E-score of `ACTTAATA` is reported as 0.353.
With `CCACCGGG` the E-score was -0.38.
The E-score of `AGACTACT` is reported as 0.0835.
`ACCATCCT` gave an E-score of 0.0996.
`AAGCTAAT` has an E-score of 0.217.
